Measured values pooled from the literature.
Protocols differ between the studies behind these lines. “And” joins repeats or separate records; there may be more than shown. Numbers after ± are the reported error.
Cell line: HepG2

SMILES	test	conditions	scale	IC50
COc1ccc(-c2cc(-c3ccc(Cl)cc3)c3c(=O)[nH]c(=O)[nH]c3n2)cc1	cell growth or viability, MTT	48 h		< 5 µM
CC(C)(C)c1cc(C(C)(C)C)c(NC(=O)c2c[nH]c3ccccc3c2=O)cc1O	oxygen consumption rate, Seahorse Mito Stress Test	1 h		11.1 µM
Cc1c(C(=O)/C=C/c2cc3ccccc3s2)nnn1-c1c(Cl)cc(Cl)cc1Cl	cell viability, MTT			9.7 to 15.6 µM
O=C(CN1CCN(c2nc3ccccc3nc2Cl)CC1)Nc1ccc([N+](=O)[O-])cc1	cell growth or viability, MTT	24 h		11.4 µM
Cc1nc2ccccc2n(CC(=O)Nc2ccc(C(=O)NNC(=O)c3ccccc3O)cc2)c1=O	cell growth or viability, MTT			14.8 µM
Cc1ccc(NCC(=O)n2ncc3c(=N)n(N[C@@H]4OC[C@@H](O)[C@H](O)[C@H]4O)cnc32)cc1	cell growth or viability, MTT	48 h		0.09 µM
CN1CCN(c2nc3cc(C(F)(F)F)ccc3n3cccc23)CC1	cell viability, ATP content	24 h		45.7 ± 14.6 µM
O=[N+]([O-])c1ccc(-n2nc(-c3cccs3)sc2=NN=Cc2cn(-c3ccccc3)nc2-c2ccccc2)cc1	cell growth or viability			35.9 µM
COc1cc(-c2cc(-c3ccc(Cl)cc3)n(CN3CCOCC3)c(=O)c2C#N)ccc1O	cell growth or viability, MTT			14.1 µM
O=C(CN1CCN(c2nc3ccccc3nc2Cl)CC1)Nc1ccccc1	cell growth or viability, MTT	24 h		14.6 µM
Cc1ccc(C=NN=c2sc(-c3cccs3)nn2-c2ccc([N+](=O)[O-])cc2)cc1	cell growth or viability			281 µM and > 100 µM
O=C(Nc1ccc(O)cc1)/C(=C/c1ccc(F)cc1)NC(=O)c1ccccc1		concentration not given		7.81 ± 0.34 µM
COc1ccc(-c2cc(-c3ccc4ccccc4c3)c3c(=O)[nH]c(=O)[nH]c3n2)cc1	cell growth or viability, MTT	48 h		< 5 µM
O=C1/C(=C/c2ccc(F)cc2)N=C(c2ccccc2)N1c1ccc(S(=O)(=O)Nc2ncccn2)cc1		concentration not given		4.23 ± 0.17 µM
N#Cc1c(-c2ccc(Cl)cc2)c2c(=O)[nH]c(-c3ccccc3)nc2n(C2CCCCC2)c1=O	cell growth or viability, MTT			1.17 µM
COc1cc(OC)c(/C=N/NC(=O)c2ccc(-c3cc(OC)c(OC)c(OC)c3)nc2C)c(OC)c1	cell growth or viability, MTT			12.5 µM
COc1cc(-c2cc(-c3ccc(Cl)cc3)n(CC(=O)n3nc(C)cc3C)c(=O)c2C#N)ccc1O	cell growth or viability, MTT			21.6 µM
COc1cc(-c2ccc(C(=O)N/N=C/c3ccc(Cl)cc3)c(C)n2)cc(OC)c1OC	cell growth or viability, MTT			22.4 µM
N#Cc1c(-c2ccc(Cl)cc2)c2c(=O)[nH]c(=S)[nH]c2n(C2CCCCC2)c1=O	cell growth or viability, MTT			1.79 µM

SMILES	test	conditions	scale	IC50
COc1cc(-c2cc(-c3ccc(Cl)cc3)[nH]c(=O)c2C#N)ccc1O	cell growth or viability, MTT			7.38 µM
COc1cc(-c2ccc(-c3nnc(SC)o3)c(C)n2)cc(OC)c1OC	cell growth or viability, MTT			13.5 µM
Cc1cccc(NC(=O)/C(=C/c2ccc(F)cc2)NC(=O)c2ccccc2)c1		concentration not given		16.5 ± 0.77 µM
N#Cc1c(-c2ccc(Cl)cc2)c(C(N)=O)c(N)n(C2CCCCC2)c1=O	cell growth or viability, MTT			15.6 µM
Cc1ccc(NCC(=O)n2ncc3c(=N)n(N[C@@H]4O[C@H](CO)[C@@H](O)[C@H](O)[C@H]4O)cnc32)cc1	cell growth or viability, MTT	48 h		0.695 µM
Cc1nc2ccccc2nc1SCC(=O)Nc1ccc(C(=O)NNC(=O)c2ccccc2O)cc1	cell growth or viability, MTT			27.1 µM
O=C(O)c1cc(/N=N/c2ccc(S(=O)(=O)Nc3ccccn3)cc2)ccc1O	NF-κB activity, inhibitor, luciferase	TNF-stimulated		0.9 µM
Cc1ccc(/C=N/NC(=O)/C(=C/c2ccc(F)cc2)NC(=O)c2ccccc2)cc1		concentration not given		31.6 ± 1.57 µM
Cc1ccc(NCC(=O)n2ncc3c2ncn2nc(SCCO)nc32)cc1	cell growth or viability, MTT	48 h		0.085 µM
COc1cc(-c2ccc(C(=O)N/N=C/c3cc(C)ccc3C)c(C)n2)cc(OC)c1OC	cell growth or viability, MTT			6.51 µM
COc1cccc(CNC(=O)/C(=C/c2ccc(F)cc2)NC(=O)c2ccccc2)c1		concentration not given		41.3 ± 1.52 µM
O=C1CSC(=S)N1CN1CCCCC1	cell growth or viability, MTT	48 h		45.9 µM
O=C(Nc1ccc(Cl)cc1)/C(=C/c1ccc(F)cc1)NC(=O)c1ccccc1		concentration not given		18.1 ± 0.96 µM
O=C(CN1CCN(c2nc3ccccc3nc2Cl)CC1)Nc1ccc(F)cc1	cell growth or viability, MTT	24 h		38.6 µM
CC(=O)OCCSc1nc2c3cnn(C(=O)CNc4ccc(C)cc4)c3ncn2n1	cell growth or viability, MTT	48 h		0.088 µM
O=[N+]([O-])c1ccc(-n2nc(-c3cccs3)sc2=NN=Cc2ccccc2)cc1	cell growth or viability			86.6 µM
CCCCCCSc1nnc(-c2ccc(-c3cc(OC)c(OC)c(OC)c3)nc2C)o1	cell growth or viability, MTT			12.7 µM
Cc1ccc(NCC(=O)n2ncc3c2ncn2nc(SCC#N)nc32)cc1	cell growth or viability, MTT	48 h		0.074 µM
O=C(CN1CCN(c2nc3ccccc3[nH]c2=O)CC1)Nc1ccccc1	cell growth or viability, MTT	24 h		11.5 µM

SMILES	test	conditions	scale	IC50
COc1cc(-c2ccc(C(=O)N/N=C/c3cc(Cl)ccc3Cl)c(C)n2)cc(OC)c1OC	cell growth or viability, MTT			13.1 µM
Cc1nc2ccccc2n(CC(=O)Nc2ccc(C(=O)Nc3ccc(O)cc3)cc2)c1=O	cell growth or viability, MTT			14.3 µM
Cc1ccc(NC(=O)/C(=C/c2ccc(F)cc2)NC(=O)c2ccccc2)cc1		concentration not given		15.9 ± 0.92 µM
COc1cc(-c2ccc(C(=O)N/N=C/c3ccncc3)c(C)n2)cc(OC)c1OC	cell growth or viability, MTT			10.8 µM
O=C(CN1CCN(c2nc3ccccc3nc2Cl)CC1)Nc1ccc(Cl)cc1	cell growth or viability, MTT	24 h		22.6 µM
CNC(=O)c1cc(Oc2ccc(NC(=O)Nc3ccc(Cl)c(C(F)(F)F)c3)cc2)ccn1	cell growth or viability, MTT	48 h		1.39 µM
COc1ccc(NC(=O)CN2CCN(c3nc4ccccc4nc3Cl)CC2)cc1	cell growth or viability, MTT	24 h		469 µM
CCOC(=O)c1nc2c(c(-c3ccc(Cl)cc3)c(C#N)c(=O)n2C2CCCCC2)c(=O)[nH]1	cell growth or viability, MTT			≥ 50 µM
CCCCNC(=O)c1ccc(NC(=O)CSc2nc3ccccc3nc2C)cc1	cell growth or viability, MTT			41.2 µM
O=C(/C=C/c1ccc(O)cc1)CC(=O)/C=C/c1ccc(O)cc1	cell growth or viability, MTT	48 h		19.5 µg/mL
O=C1NN(c2ccccc2)C(c2ccccc2)=N/C1=C\c1ccc(F)cc1		concentration not given		5.59 µM
Cc1ccc(NC(=O)CN2CCN(c3nc4ccccc4nc3Cl)CC2)cc1	cell growth or viability, MTT	24 h		8.08 µM
Cc1ccc(NCC(=O)n2ncc3c2ncn2[nH]c(=S)nc32)cc1	cell growth or viability, MTT	48 h		0.911 µM
COc1cc(C2Oc3cc([C@H]4Oc5cc(O)cc(O)c5C(=O)[C@@H]4O)ccc3OC2CO)ccc1O (some centres unmarked)	mitochondrial membrane potential, high content imaging	5 h		inactive
CC(=O)c1ccc(NC(=O)CN2CCN(c3nc4ccccc4nc3Cl)CC2)cc1	cell growth or viability, MTT	24 h		12.5 µM
COc1cc(-c2ccc(-c3nnc(SCC4CCCCC4)o3)c(C)n2)cc(OC)c1OC	cell growth or viability, MTT			15.7 µM
COc1cc2nc(N3CCN(C(=O)OCc4ccccc4)[C@H](C(=O)NC(C)(C)C)C3)nc(N)c2cc1OC	cell viability, ATP content	24 h		70.5 µM
CC1(COc2ccc(CC3SC(=O)NC3=O)cc2)CCCCC1 (centres unmarked)	oxygen consumption rate, inhibitor, Seahorse Mito Stress Test	1 h	reference: DMSO 0.2%	50 to 100 µM

Repeated from above:
SMILES	test	conditions	scale	IC50
O=C(CN1CCN(c2nc3ccccc3nc2Cl)CC1)Nc1ccc(Cl)cc1	cell growth or viability, MTT	24 h		22.6 µM
CNC(=O)c1cc(Oc2ccc(NC(=O)Nc3ccc(Cl)c(C(F)(F)F)c3)cc2)ccn1	cell growth or viability, MTT	48 h		1.39 µM
COc1ccc(NC(=O)CN2CCN(c3nc4ccccc4nc3Cl)CC2)cc1	cell growth or viability, MTT	24 h		469 µM
CCOC(=O)c1nc2c(c(-c3ccc(Cl)cc3)c(C#N)c(=O)n2C2CCCCC2)c(=O)[nH]1	cell growth or viability, MTT			≥ 50 µM
CCCCNC(=O)c1ccc(NC(=O)CSc2nc3ccccc3nc2C)cc1	cell growth or viability, MTT			41.2 µM
O=C(/C=C/c1ccc(O)cc1)CC(=O)/C=C/c1ccc(O)cc1	cell growth or viability, MTT	48 h		19.5 µg/mL
O=C1NN(c2ccccc2)C(c2ccccc2)=N/C1=C\c1ccc(F)cc1		concentration not given		5.59 µM
Cc1ccc(NC(=O)CN2CCN(c3nc4ccccc4nc3Cl)CC2)cc1	cell growth or viability, MTT	24 h		8.08 µM
